Experimental data of several laboratories.
Each line is one published result; not all experiments were run side by side.

Structure (SMILES) | organism | assay | system | conditions | MIC
N=C(N)NCCC[C@@H]1NC(=O)[C@H](CCCNC(=N)N)NC(=O)[C@@H](CCCNC(=N)N)NC(=O)[C@H](C(c2ccccc2)c2ccccc2)NC(=O)[C@H](C(c2ccccc2)c2ccccc2)NC(=O)[C@H](C(c2ccccc2)c2ccccc2)NC(=O)[C@H](CCCNC(=N)N)NC1=O | Paecilomyces variotii |  | MYA-3630 |  | 4 µg/mL
CC[C@H](C)[C@@H]1NC(=O)[C@@H]([C@@H](C)O)NC(=O)CNC(=O)[C@H](CC(=O)O)NC(=O)CNC(=O)[C@H](CC(=O)O)NC(=O)CNC(=O)[C@H]2CCCCN2C(=O)[C@@H](NC(=O)[C@H](CC(=O)O)NC(=O)/C=C/CCCCCCCCCC(C)C)CNC(=O)[C@@H]2CCCN2C1=O | Staphylococcus simulans | broth microdilution | 22, Mueller-Hinton broth, Mg2+ 10 mg/L | 16 h, 30 °C, added: Ca2+ 0 mM | > 128 µg/mL
CCCCCCCCCCCCCCCCCCn1cc(CN(CCC(=O)NCCN(CCC(=O)NCCN(CCC(=O)NCCN(C)C)CCC(=O)NCCN(C)C)CCC(=O)NCCN(CCC(=O)NCCN(C)C)CCC(=O)NCCN(C)C)CCC(=O)NCCN(CCC(=O)NCCN(CCC(=O)NCCN(C)C)CCC(=O)NCCN(C)C)CCC(=O)NCCN(CCC(=O)NCCN(C)C)CCC(=O)NCCN(C)C)nn1 | Vibrio parahaemolyticus |  | RIMD 2210633, LB broth | 18 h | 6 µg/mL
Cc1c(CN(C)C(=O)/C=C/c2cnc3c(c2)CC(N)C(=O)N3)oc2ccccc12 (stereo not shown) | Klebsiella pneumoniae | microbial growth, broth dilution | BAA2470 |  | 4 µg/mL
CCOc1c(NC(=O)c2ccc(NC(=O)c3ccc(NC(=O)[C@H](Cc4c[nH]nn4)NC(=O)c4ccc(NC(=O)/C(C)=C/c5ccc(O)cc5)cc4)cc3)c(OC)c2O)ccc(C(=O)O)c1O | Micrococcus luteus | broth microdilution | DSM 1790 |  | 0.125 µg/mL
CC[C@H](C)[C@H](NC(=O)[C@H](CC(C)C)NC(=O)[C@H](CO)NC(=O)[C@H](Cc1ccc(O)cc1)NC(=O)CNC(=O)CNC(=O)[C@@H](NC(=O)[C@H](CCCCN)NC(=O)[C@H](Cc1ccc(O)cc1)NC(=O)[C@H](CO)NC(=O)[C@H](CC(N)=O)NC(=O)[C@H](CCCCN)NC(=O)[C@H](CCCCN)NC(=O)[C@H](CO)NC(=O)CNC(=O)[C@H](CCCCN)NC(=O)[C@H](CCCCN)NC(=O)[C@H](CCCNC(=N)N)NC(=O)[C@H](CCCNC(=N)N)NC(=O)[C@@H]1CCCN1)[C@@H](C)O)C(=O)N[C@@H](CO)C(=O)N[C@@H](CC(C)C)C(=O)NCC(=O)N[C@@H](CCCCN)C(=O)N1CCC[C@H]1C(=O)N[C@@H](CC(N)=O)C(=O)N[C@H](C(=O)N[C@@H](Cc1c[nH]cn1)C(=O)N[C@@H](CCCCN)C(=O)N[C@@H](C)C(=O)N1CCC[C@H]1C(=O)N[C@@H](Cc1ccc(O)cc1)C(=O)N[C@@H](CCSC)C(=O)N[C@@H](CCC(=O)O)C(=O)N[C@@H](CO)C(=O)N[C@@H](CC(C)C)C(=O)O)C(C)C | Micrococcus luteus | broth microdilution | ATCC 4698 | 43 h, 37 °C, cation-adjusted Mueller-Hinton broth | 64 µg/mL
COc1nc(C(=O)Nc2ccc(C(=O)O)nc2OC)ccc1NC(=O)c1ccc(NC(=O)[C@H](Cc2c[nH]nn2)NC(=O)c2ccc(NC(=O)/C(C)=C/c3ccc(O)cc3)cc2)cc1 | Micrococcus luteus | broth microdilution | DSM 1790 |  | 2 µg/mL
CC[C@H](C)[C@H](N)C1=N[C@H](C(=O)N[C@@H](CC(C)C)C(=O)N[C@H](CCC(=O)O)C(=O)N[C@H](C(=O)N[C@H]2CCCCNC(=O)[C@H](CC(N)=O)NC(=O)[C@@H](CC(=O)O)NC(=O)[C@H](Cc3c[nH]cn3)NC(=O)[C@@H](Cc3ccccc3)NC(=O)[C@H]([C@@H](C)CC)NC(=O)[C@@H](CCCN)NC2=O)[C@@H](C)CC)CS1 | Staphylococcus simulans |  | 22 | 18 h, 37 °C, 0.3 mM ZnSO4 LB | 0.25 µg/mL
C#CCOc1ccc(CN[C@@]2(C)C[C@H](O[C@H]3[C@H](Oc4c5cc6cc4Oc4ccc(cc4Cl)[C@@H](O)[C@@H](NC(=O)[C@@H](CC(C)C)NC)C(=O)N[C@@H](CC(N)=O)C(=O)N[C@H]6C(=O)N[C@H]4C(=O)N[C@H](C(=O)N[C@H](C(=O)NCC(N)=O)c6cc(O)cc(O)c6-c6cc4ccc6O)[C@H](O)c4ccc(c(Cl)c4)O5)O[C@H](CO)[C@@H](O)[C@@H]3O)O[C@@H](C)[C@H]2O)cc1OC | Staphylococcus simulans | broth microdilution | 22, cation-adjusted Mueller-Hinton broth | 20 to 24 h, 37 °C, 0.002% polysorbate 80 | 0.25 µg/mL
COc1c(NC(=O)c2ccc(NC(=O)[C@H](Cc3c[nH]nn3)NC(=O)c3ccc(NC(=O)/C(C)=C/c4ccc(O)cc4)cc3)cc2)ccc(C(=O)Nc2ccc(C(=O)O)c(O)c2)c1O | Micrococcus luteus | broth microdilution | DSM 1790 |  | 0.5 µg/mL
CN[C@H](CC(C)C)C(=O)N[C@H]1C(=O)N[C@@H](CC(N)=O)C(=O)N[C@H]2C(=O)N[C@H]3C(=O)N[C@H](C(=O)N[C@H](C(=O)NCc4cn(CCCCC(=O)N[C@H](C(=O)N[C@@H](CCN)C(=O)N[C@H]5CCNC(=O)[C@H]([C@@H](C)O)NC(=O)[C@H](CCN)NC(=O)[C@H](CCN)NC(=O)[C@H](CC(C)C)NC(=O)[C@@H](CC(C)C)NC(=O)[C@H](CCN)NC5=O)[C@@H](C)O)nn4)c4cc(O)cc(O)c4-c4cc3ccc4O)[C@H](O)c3ccc(c(Cl)c3)Oc3cc2cc(c3O[C@@H]2O[C@H](CO)[C@@H](O)[C@H](O)[C@H]2O[C@H]2C[C@](C)(N)[C@H](O)[C@H](C)O2)Oc2ccc(cc2Cl)[C@H]1O | Staphylococcus simulans | broth microdilution | 22, cation-adjusted Mueller-Hinton broth | 20 to 24 h, 37 °C, 0.002% polysorbate 80 | 0.031 µg/mL
CC1C=CC=CC(C)C2C=CC3CC(C)(O)C(Cl)C(C)C3C2C(=O)C(Cl)(Cl)C(=O)C(C)C(=O)O1 (stereo not shown) | Staphylococcus aureus |  | MSSA clinical isolate | PEN CLI ERY TET resistant | 0.025 µg/mL
CC[C@H](C)[C@H](NC(=O)[C@H](CCC(N)=O)NC(=O)[C@H](Cc1ccccc1)NC(=O)[C@H](CC(N)=O)NC(=O)[C@H](CCCCN)NC(=O)[C@H](CC(C)C)NC(=O)[C@H](CCCNC(=N)N)NC(=O)[C@H](CCCCN)NC(=O)[C@H](CCCCN)NC(=O)[C@@H](NC(=O)[C@H](CO)NC(=O)[C@H](CCCCN)NC(=O)CNC(=O)[C@H](CC(C)C)NC(=O)[C@H](CCCCN)NC(=O)[C@H](CCCCN)NC(=O)[C@H](CC(C)C)NC(=O)[C@H](CCCCN)NC(=O)[C@H](CCCCN)NC(=O)[C@H](CCCNC(=N)N)NC(=O)[C@H](CC(C)C)NC(=O)CNC(=O)[C@@H](N)CCCNC(=N)N)[C@@H](C)CC)C(=O)NCC(=O)N[C@@H](Cc1ccccc1)C(=O)N[C@@H](CO)C(=O)N[C@H](C(=O)N1CCC[C@H]1C(=O)N[C@@H](Cc1ccccc1)C(=O)N[C@@H](C)C(=O)NCC(=O)O)C(C)C | Micrococcus luteus | broth microdilution | ATCC 4698 |  | 1.12 µM
COC1=CC(c2ccc[nH]2)=NC1=CNC(C)(C)C.Cl | Candidozyma auris | broth microdilution | CDC AR Bank #0381 | 24 h | 64 µg/mL
COc1c(NC(=O)c2ccc(NC(=O)c3ccc(NC(=O)[C@H](CC#N)NC(=O)c4ccc(NC(=O)/C(C)=C/c5ccc(O)cc5)cc4)cc3)c(OC)c2O)ccc(C(=O)O)c1O | Micrococcus luteus | microbial growth, broth dilution | DSM1790 |  | 1 µg/mL
CC(C)C[C@@H]1NC(=O)[C@@H](CC(C)C)NC(=O)[C@H](CCN)NC(=O)[C@@H](NC(=O)[C@H](CCN)NC(=O)[C@@H](N)[C@@H](C)O)CCNC(=O)[C@H]([C@@H](C)O)NC(=O)[C@H](CCN)NC(=O)[C@H](CCN)NC1=O | Staphylococcus simulans | broth microdilution | 22, cation-adjusted Mueller-Hinton broth | 20 to 24 h, 37 °C, 0.002% polysorbate 80 | > 128 µg/mL
COC1C=COC2(C)Oc3c(C)c(O)c4c(c3C2=O)C2=NC3(CCN(CC(C)C)CC3)NC2=C(NC(=O)C(C)=CC=CC(C)C(O)C(C)C(O)C(C)C(OC(=O)Nc2cnccn2)C1C)C4=O (stereo not shown) | Mycobacteroides abscessus | broth microdilution | ATCC 19977 |  | 0.028 µM
CN[C@H](CC(C)C)C(=O)N[C@H]1C(=O)N[C@@H](CC(N)=O)C(=O)N[C@H]2C(=O)N[C@H]3C(=O)N[C@H](C(=O)N[C@H](C(=O)O)c4cc(O)cc(O)c4-c4cc3ccc4O)[C@H](O)c3ccc(c(Cl)c3)Oc3cc2cc(c3O[C@@H]2O[C@H](CO)[C@@H](O)[C@H](O)[C@H]2O[C@H]2C[C@](C)(NCc3ccc(OCc4cn(CCCCC(=O)N[C@H](C(=O)N[C@@H](CCN)C(=O)N[C@H]5CCNC(=O)[C@H]([C@@H](C)O)NC(=O)[C@H](CCN)NC(=O)[C@H](CCN)NC(=O)[C@H](CC(C)C)NC(=O)[C@@H](CC(C)C)NC(=O)[C@H](CCN)NC5=O)[C@@H](C)O)nn4)c(OC)c3)[C@H](O)[C@H](C)O2)Oc2ccc(cc2Cl)[C@H]1O | Staphylococcus simulans | broth microdilution | 22, cation-adjusted Mueller-Hinton broth | 20 to 24 h, 37 °C, 0.002% polysorbate 80 | 0.016 µg/mL
N=C(N)NCCC[C@@H]1NC(=O)[C@H](CCCNC(=N)N)NC(=O)[C@@H](CCCNC(=N)N)NC(=O)[C@@H](CCCNC(=N)N)NC(=O)[C@@H](C(c2ccccc2)c2ccccc2)NC(=O)[C@H](Cc2c[nH]c3ccccc23)NC(=O)[C@@H](C(c2ccccc2)c2ccccc2)NC1=O | Paecilomyces variotii |  | MYA-3630 |  | 8 µg/mL

Some of these lines once more:
Structure (SMILES) | organism | assay | system | conditions | MIC
N=C(N)NCCC[C@@H]1NC(=O)[C@H](CCCNC(=N)N)NC(=O)[C@@H](CCCNC(=N)N)NC(=O)[C@H](C(c2ccccc2)c2ccccc2)NC(=O)[C@H](C(c2ccccc2)c2ccccc2)NC(=O)[C@H](C(c2ccccc2)c2ccccc2)NC(=O)[C@H](CCCNC(=N)N)NC1=O | Paecilomyces variotii |  | MYA-3630 |  | 4 µg/mL
CC[C@H](C)[C@@H]1NC(=O)[C@@H]([C@@H](C)O)NC(=O)CNC(=O)[C@H](CC(=O)O)NC(=O)CNC(=O)[C@H](CC(=O)O)NC(=O)CNC(=O)[C@H]2CCCCN2C(=O)[C@@H](NC(=O)[C@H](CC(=O)O)NC(=O)/C=C/CCCCCCCCCC(C)C)CNC(=O)[C@@H]2CCCN2C1=O | Staphylococcus simulans | broth microdilution | 22, Mueller-Hinton broth, Mg2+ 10 mg/L | 16 h, 30 °C, added: Ca2+ 0 mM | > 128 µg/mL
CCCCCCCCCCCCCCCCCCn1cc(CN(CCC(=O)NCCN(CCC(=O)NCCN(CCC(=O)NCCN(C)C)CCC(=O)NCCN(C)C)CCC(=O)NCCN(CCC(=O)NCCN(C)C)CCC(=O)NCCN(C)C)CCC(=O)NCCN(CCC(=O)NCCN(CCC(=O)NCCN(C)C)CCC(=O)NCCN(C)C)CCC(=O)NCCN(CCC(=O)NCCN(C)C)CCC(=O)NCCN(C)C)nn1 | Vibrio parahaemolyticus |  | RIMD 2210633, LB broth | 18 h | 6 µg/mL
